Measured values pooled from the literature.
Compare with care: the assays were run in different laboratories. Several values in a cell are separate wells, animals, samples, runs or records. ± marks the error that the study gave.
TARDBP aggregated: TAR DNA-binding protein 43, aggregated (TARDBP, Homo sapiens, UniProt Q13148)
Sequence of UniProt Q13148 (whole entry, looked up): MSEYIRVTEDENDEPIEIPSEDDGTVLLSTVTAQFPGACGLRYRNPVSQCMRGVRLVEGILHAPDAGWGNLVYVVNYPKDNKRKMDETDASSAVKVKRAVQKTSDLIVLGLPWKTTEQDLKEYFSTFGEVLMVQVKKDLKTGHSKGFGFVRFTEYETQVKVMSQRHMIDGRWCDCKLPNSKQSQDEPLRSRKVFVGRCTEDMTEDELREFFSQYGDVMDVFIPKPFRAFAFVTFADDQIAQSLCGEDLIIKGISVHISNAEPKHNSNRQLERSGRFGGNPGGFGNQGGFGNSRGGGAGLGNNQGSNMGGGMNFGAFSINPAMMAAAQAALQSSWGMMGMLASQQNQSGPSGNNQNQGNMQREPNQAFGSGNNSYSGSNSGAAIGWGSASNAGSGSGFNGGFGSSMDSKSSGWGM
CASP6: Caspase-6 (CASP6, Homo sapiens, UniProt P55212)
Sequence of UniProt P55212 (whole entry, looked up): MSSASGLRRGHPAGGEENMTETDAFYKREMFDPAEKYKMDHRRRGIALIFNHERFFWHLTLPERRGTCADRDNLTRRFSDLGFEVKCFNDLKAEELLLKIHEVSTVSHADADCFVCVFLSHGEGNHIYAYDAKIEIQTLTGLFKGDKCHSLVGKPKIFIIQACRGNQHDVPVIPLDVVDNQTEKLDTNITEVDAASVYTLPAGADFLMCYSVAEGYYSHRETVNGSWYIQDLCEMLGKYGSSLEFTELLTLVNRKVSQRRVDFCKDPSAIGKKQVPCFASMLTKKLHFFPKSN
TDP1: Tyrosyl-DNA phosphodiesterase 1 (TDP1, Homo sapiens, UniProt Q9NUW8)
Sequence of UniProt Q9NUW8 (whole entry, looked up): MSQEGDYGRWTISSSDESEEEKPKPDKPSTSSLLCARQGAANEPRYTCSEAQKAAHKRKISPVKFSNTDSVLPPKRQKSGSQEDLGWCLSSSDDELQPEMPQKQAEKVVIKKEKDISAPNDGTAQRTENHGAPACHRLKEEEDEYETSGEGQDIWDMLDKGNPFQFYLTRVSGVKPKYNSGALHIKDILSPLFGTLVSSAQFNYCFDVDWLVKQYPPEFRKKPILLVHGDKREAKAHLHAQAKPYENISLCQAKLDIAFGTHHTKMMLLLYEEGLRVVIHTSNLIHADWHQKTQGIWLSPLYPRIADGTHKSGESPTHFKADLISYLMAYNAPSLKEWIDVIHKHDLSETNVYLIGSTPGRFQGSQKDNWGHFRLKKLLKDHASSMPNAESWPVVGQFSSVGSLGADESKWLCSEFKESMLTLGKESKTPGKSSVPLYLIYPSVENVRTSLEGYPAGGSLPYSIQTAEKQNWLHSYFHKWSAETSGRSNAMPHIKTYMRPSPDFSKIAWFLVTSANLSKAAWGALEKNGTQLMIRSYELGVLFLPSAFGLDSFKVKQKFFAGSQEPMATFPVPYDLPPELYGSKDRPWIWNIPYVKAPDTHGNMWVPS
Gria1: Glutamate receptor 1 (Gria1, Rattus norvegicus, UniProt P19490)
Sequence of UniProt P19490 (whole entry, looked up): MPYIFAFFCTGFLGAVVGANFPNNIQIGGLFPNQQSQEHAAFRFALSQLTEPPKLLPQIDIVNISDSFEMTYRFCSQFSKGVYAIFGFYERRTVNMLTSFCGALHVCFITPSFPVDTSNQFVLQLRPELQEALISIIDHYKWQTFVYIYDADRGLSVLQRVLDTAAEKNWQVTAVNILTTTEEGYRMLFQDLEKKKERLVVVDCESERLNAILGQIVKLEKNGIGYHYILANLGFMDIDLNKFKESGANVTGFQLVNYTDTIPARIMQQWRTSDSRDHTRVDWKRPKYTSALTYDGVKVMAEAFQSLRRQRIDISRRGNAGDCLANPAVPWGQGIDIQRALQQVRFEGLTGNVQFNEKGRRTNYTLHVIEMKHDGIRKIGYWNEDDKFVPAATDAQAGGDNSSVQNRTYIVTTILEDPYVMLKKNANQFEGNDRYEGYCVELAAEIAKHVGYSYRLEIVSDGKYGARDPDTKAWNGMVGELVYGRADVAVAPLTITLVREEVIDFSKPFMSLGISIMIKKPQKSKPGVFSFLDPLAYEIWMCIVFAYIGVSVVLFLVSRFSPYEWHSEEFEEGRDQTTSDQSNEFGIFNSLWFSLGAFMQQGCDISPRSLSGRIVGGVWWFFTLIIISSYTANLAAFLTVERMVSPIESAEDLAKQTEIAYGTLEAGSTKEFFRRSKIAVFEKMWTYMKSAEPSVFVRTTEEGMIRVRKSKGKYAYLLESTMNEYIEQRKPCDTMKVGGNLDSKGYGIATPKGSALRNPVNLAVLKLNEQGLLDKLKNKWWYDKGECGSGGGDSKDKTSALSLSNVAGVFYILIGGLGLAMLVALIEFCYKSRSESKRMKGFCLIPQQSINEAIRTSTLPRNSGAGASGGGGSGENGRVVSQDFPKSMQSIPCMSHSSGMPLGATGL
CHRAC1 Cys55: Chromatin accessibility complex protein 1, Cys55 (CHRAC1, Homo sapiens, UniProt Q9NRG0)
Sequence of UniProt Q9NRG0 (whole entry, looked up): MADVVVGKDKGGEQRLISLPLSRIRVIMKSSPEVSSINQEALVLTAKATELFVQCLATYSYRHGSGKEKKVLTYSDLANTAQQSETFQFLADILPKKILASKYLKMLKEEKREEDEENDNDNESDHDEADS
ppa: Inorganic pyrophosphatase (ppa, Escherichia coli, UniProt P0A7A9)
Sequence of UniProt P0A7A9 (whole entry, looked up): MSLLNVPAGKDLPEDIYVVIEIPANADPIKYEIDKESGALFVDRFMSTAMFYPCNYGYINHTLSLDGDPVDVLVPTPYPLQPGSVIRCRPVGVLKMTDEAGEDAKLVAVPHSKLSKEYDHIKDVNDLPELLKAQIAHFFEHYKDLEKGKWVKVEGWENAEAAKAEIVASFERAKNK
T1: dsDNA, duplex; chain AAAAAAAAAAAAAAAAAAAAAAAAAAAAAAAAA; chain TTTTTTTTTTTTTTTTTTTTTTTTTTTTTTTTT
Sequence of UniProt P68371 (whole entry, looked up): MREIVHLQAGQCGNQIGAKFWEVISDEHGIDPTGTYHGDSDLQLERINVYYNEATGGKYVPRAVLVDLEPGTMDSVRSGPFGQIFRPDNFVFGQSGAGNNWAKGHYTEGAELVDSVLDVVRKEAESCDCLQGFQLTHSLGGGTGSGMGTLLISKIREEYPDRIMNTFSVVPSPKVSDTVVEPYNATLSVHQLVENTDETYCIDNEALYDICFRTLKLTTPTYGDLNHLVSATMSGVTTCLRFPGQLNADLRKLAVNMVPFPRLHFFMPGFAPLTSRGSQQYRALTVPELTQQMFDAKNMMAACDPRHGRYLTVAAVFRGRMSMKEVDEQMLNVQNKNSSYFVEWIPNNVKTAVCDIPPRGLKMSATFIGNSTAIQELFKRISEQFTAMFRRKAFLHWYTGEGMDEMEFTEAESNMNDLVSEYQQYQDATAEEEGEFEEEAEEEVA
Sequence of UniProt Q9CAJ0 (whole entry, looked up): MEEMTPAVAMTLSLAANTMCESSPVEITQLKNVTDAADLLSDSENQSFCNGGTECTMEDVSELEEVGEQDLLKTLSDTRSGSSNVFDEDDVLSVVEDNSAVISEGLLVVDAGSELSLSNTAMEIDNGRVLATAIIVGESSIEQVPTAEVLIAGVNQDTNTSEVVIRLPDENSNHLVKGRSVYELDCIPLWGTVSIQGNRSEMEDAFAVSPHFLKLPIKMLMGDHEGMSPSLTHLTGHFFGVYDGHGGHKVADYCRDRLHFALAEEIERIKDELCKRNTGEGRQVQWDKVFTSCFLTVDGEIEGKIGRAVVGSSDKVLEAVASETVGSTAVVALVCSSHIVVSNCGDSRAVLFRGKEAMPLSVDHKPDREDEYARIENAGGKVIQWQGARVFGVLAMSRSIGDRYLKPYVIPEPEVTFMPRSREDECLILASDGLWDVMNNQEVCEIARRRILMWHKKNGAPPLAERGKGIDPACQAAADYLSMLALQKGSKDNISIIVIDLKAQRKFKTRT
Sequence of UniProt P08191 (whole entry, unmodified, looked up): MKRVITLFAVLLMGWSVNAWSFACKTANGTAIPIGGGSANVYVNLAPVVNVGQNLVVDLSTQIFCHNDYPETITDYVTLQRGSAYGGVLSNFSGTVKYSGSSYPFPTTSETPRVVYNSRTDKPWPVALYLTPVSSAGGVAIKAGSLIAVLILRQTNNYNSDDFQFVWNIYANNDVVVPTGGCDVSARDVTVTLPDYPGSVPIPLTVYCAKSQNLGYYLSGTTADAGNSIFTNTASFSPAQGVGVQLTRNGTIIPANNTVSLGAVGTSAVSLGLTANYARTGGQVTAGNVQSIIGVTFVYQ
Sequence of UniProt P09391 (whole entry, looked up): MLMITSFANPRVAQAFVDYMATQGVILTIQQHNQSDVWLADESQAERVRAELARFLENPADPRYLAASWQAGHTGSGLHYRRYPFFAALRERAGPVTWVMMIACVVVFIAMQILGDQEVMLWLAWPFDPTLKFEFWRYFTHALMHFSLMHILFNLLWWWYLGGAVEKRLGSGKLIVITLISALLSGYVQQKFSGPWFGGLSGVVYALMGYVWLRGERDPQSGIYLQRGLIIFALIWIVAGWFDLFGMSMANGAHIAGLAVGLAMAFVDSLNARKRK
Sequence of UniProt P41148 (whole entry, unmodified, looked up): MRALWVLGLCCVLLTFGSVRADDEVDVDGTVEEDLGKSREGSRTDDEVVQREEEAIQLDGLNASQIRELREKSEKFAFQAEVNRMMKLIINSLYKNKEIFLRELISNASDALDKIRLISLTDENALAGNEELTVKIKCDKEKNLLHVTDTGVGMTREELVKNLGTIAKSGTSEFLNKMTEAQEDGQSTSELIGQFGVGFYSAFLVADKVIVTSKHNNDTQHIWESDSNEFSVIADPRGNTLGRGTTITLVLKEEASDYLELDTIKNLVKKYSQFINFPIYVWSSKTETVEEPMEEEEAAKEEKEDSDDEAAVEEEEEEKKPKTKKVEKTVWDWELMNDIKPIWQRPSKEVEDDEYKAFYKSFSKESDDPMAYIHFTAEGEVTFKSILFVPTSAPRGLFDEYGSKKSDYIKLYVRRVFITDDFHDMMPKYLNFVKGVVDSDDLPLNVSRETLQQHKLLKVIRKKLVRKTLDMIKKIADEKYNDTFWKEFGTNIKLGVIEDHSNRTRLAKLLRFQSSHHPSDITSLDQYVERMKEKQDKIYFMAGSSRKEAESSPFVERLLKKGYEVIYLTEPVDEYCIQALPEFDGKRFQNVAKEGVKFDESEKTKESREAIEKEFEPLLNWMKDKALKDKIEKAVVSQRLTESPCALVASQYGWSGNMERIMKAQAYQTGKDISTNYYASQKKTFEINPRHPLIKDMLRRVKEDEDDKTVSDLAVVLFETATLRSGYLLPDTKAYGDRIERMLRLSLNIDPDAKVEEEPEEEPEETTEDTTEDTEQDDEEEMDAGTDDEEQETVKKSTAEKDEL

`O=C1c2sc(-c3ccc(N4CCC(CO)CC4)nc3F)nc2CCN1c1cccnc1` has a specific binding of 0.083 nM and 0.102 nM and 0.164 nM (TARDBP aggregated; radioligand binding; human, FTLD-TDP type C sarkosyl-insoluble extract; 9.68 nM).
For `CC(=O)N[C@@H](CC(=O)O)C(=O)N[C@@H](CC(C)C)C(=O)N[C@@H](C)C(=O)N[C@@H](CC(=O)O)C(=O)COC(=O)c1c(C)cccc1C`, the kinact/KI was 1400 M⁻¹ s⁻¹ (CASP6; enzyme activity, inhibitor).
The inhibition of `N#CC(C=NOCc1ccc(-c2nc3cc(-c4ccccc4)ccn3c2Nc2ccc(C(=O)O)cc2)cc1)c1nc2ccccc2o1` (mixture of isomers) is reported as 96% (TDP1; enzyme activity, inhibitor; 100 µM, unpurified compound).
Under “cooperativity factor alpha”, `Nc1nnc(-c2ccccc2O)cc1N1CCNCC1` is recorded as 1 (SMARCA2 bromodomain, human; ternary complex binding, TR-FRET competition; added: VCB R69A mutant).
`CCCCCCCCCCCCCCCC(=O)OCC(CSC[C@H](N)C(=O)N[C@@H](CO)C(=O)N[C@@H](CCCCN)C(=O)N[C@@H](CCCCN)C(=O)N[C@@H](CCCCN)C(=O)N[C@@H](CCCCN)C(=O)NCCCCCC(=O)N[C@@H](CCCCN)C(=O)N[C@@H](CC(C)C)C(=O)N[C@H](C(=O)N[C@@H](Cc1ccccc1)C(=O)N[C@@H](Cc1ccccc1)C(=O)N[C@@H](Cc1ccc2ccccc2c1)C(=O)O)C(C)C)OC(=O)CCCCCCCCCCCCCCC` (stereo partly shown) gave a fibril diameter of 96.9 nm (Amyloid-beta precursor protein, fibrillar amyloid-beta (APP, Homo sapiens, UniProt P05067); TEM; 2.0 eq, 5 h, fibril 4, added: APP 20 µM).
Under “radius of gyration”, `N=C(N)NCCC[C@H](NC(=O)[C@@H]1CCCN1C(=O)[C@H](CCCNC(=N)N)NC(=O)[C@@H]1CCCN1C(=O)[C@H](CCCNC(=N)N)NC(=O)[C@@H]1CCCN1C(=O)[C@H](CCCNC(=N)N)NC(=O)[C@@H]1CCCN1C(=O)[C@H](CCCNC(=N)N)NC(=O)[C@@H]1CCCN1C(=O)[C@H](CCCNC(=N)N)NC(=O)[C@@H]1CCCN1C(=O)[C@H](CCCNC(=N)N)NC(=O)[C@@H]1CCCN1C(=O)[C@H](CCCNC(=N)N)NC(=O)[C@@H]1CCCN1C(=O)[C@H](CCCNC(=N)N)NC(=O)[C@@H]1CCCN1C(=O)[C@H](CCCNC(=N)N)NC(=O)[C@@H]1CCCN1C(=O)[C@H](CCCNC(=N)N)NC(=O)[C@@H]1CCCN1C(=O)[C@H](CCCNC(=N)N)NC(=O)[C@@H]1CCCN1C(=O)[C@H](CCCNC(=N)N)NC(=O)[C@@H]1CCCN1C(=O)[C@H](CCCNC(=N)N)NC(=O)[C@@H]1CCCN1C(=O)[C@H](CCCNC(=N)N)NC(=O)[C@@H]1CCCN1C(=O)[C@H](CCCNC(=N)N)NC(=O)[C@@H]1CCCN1C(=O)[C@H](CCCNC(=N)N)NC(=O)[C@@H]1CCCN1C(=O)[C@H](CCCNC(=N)N)NC(=O)[C@@H]1CCCN1C(=O)[C@H](CCCNC(=N)N)NC(=O)[C@@H]1CCCN1C(=O)[C@H](CCCNC(=N)N)NC(=O)[C@@H]1CCCN1C(=O)[C@H](CCCNC(=N)N)NC(=O)[C@@H]1CCCN1C(=O)[C@H](CCCNC(=N)N)NC(=O)[C@@H]1CCCN1C(=O)[C@H](CCCNC(=N)N)NC(=O)[C@@H]1CCCN1C(=O)[C@H](Cc1ccc(O)cc1)NC(=O)[C@H](CO)NC(=O)CN)C(=O)O` is recorded as 104.5 ± 0.86 Å (Nucleophosmin (NPM1, Homo sapiens, UniProt P06748); SANS P(r) analysis; 2 molar excess over NPM1, 25 °C).
For `COc1cccc2c(N3CCC(CCP(=O)(O)O)CC3)ncnc12`, the koff was 0.00195 s⁻¹ (Ectonucleotide pyrophosphatase/phosphodiesterase family member 1 (Enpp1, Mus musculus, UniProt P06802); binding, SPR).
For `O=C(O)c1ccc(Nc2c(-c3ccccc3)nc3ccc(CON=Cc4cn(-c5ccccc5)nn4)cn23)cc1`, the inhibition was 13.8% (TDP1; enzyme activity, inhibitor; 100 µM, unpurified compound).
Under “desensitization time constant”, `COC(=O)Cc1cc2c(cc1C(=O)c1ccccc1I)OCO2` is recorded as 2.3 ± 0.1 ms (Gria1; glutamate-evoked current, whole-cell patch clamp; HEK-293T; concentration not given, weighted tau, 500 ms pulse, added: glutamate).
For `CC(C)[C@@H]1NC(=O)[C@H](Cc2ccccc2)NC(=O)CSC[C@@H](C(N)=O)NC(=O)[C@H](CCC(=O)O)NC(=O)[C@H](CO)NC(=O)[C@H](Cc2c[nH]c3cccc(Cl)c23)NC(=O)[C@H](C2CCCCC2)NC(=O)[C@H](C(C)C)NC(=O)[C@H](Cc2ccc(O)cc2)NC(=O)[C@H](CC(=O)O)NC(=O)[C@H](Cc2c[nH]c3ccccc23)NC(=O)[C@H](Cc2ccc(N)nc2)NC(=O)[C@H](Cc2c[nH]c3ccc(Cl)cc23)NC(=O)[C@H](CCC(=O)O)NC1=O`, the remaining activity was 45.5% (Interleukin-1 receptor-like 2 (IL1RL2, Homo sapiens, UniProt Q9HB29); reporter gene (SEAP), inhibitor, HEK-Blue IL-36R reporter; HEK-Blue IL-36R cells; 1.23 µM, 6 h, added: IL-36β 0.3 ng/mL).
`CC(=O)N[C@H](C(=O)N[C@@H](CCC(=O)O)C(=O)N[C@@H](CO)C(=O)N[C@@H](CC(=O)O)C(=O)COC(=O)c1c(C)cccc1C)[C@@H](C)O` gave a kinact/KI of 195000 M⁻¹ s⁻¹ (CASP6; enzyme activity, inhibitor).
`CCCc1n(Cc2ccc(Br)cc2)c2c([n+]1Cc1ccc(Br)cc1)CCCC2` — result for binding: “binds” (T1, dsDNA, duplex; competition with EtBr, competitor, EtBr displacement fluorescence; Na+ 50 mM, added: EtBr).
`CCCCCCCO[C@H]1O[C@H](CO)[C@@H](O)[C@H](O)[C@@H]1O` gave a -TΔS of 17.4 kJ/mol and 16.1 kJ/mol (Type 1 fimbrin D-mannose specific adhesin, lectin domain (fimH, Escherichia coli K-12, UniProt P08191); binding, isothermal titration calorimetry; 37 °C, individual direct titrations).
The SPR response of `O=C1c2sc(-c3ccc(N4CCC(F)C4)nc3F)nc2CCN1c1cccnc1` (stereo not shown) is reported as 0.894 RU (TARDBP aggregated; binding, surface plasmon resonance; brain-derived TDP-43 aggregates; 18.8 nM).
`Fc1ccc2nc(Nc3ccc(F)c(F)c3)nc(NC3CCCCC3)c2c1` gave a bias factor of 32 fold (Beta-2 adrenergic receptor (ADRB2, Homo sapiens, UniProt P07550); β-arrestin2 recruitment, PathHunter and GloSensor; relative to: GloSensor IC50 over PathHunter IC50).
For `N[C@@H](Cc1c[nH]c2cc(OCc3ccccc3)ccc12)C(=O)O`, the Hill slope was -1.77 (Large neutral amino acids transporter small subunit 1 (SLC7A5, Homo sapiens, UniProt Q01650); [3H]-L-leucine uptake; HT-29).
`CCCCCCCCCCCCC/C=C/C=O`: “isoTOP-ABPP competition ratio” 1.1 (CHRAC1 Cys55; competitive isoTOP-ABPP; proteome, soluble, MDA-MB-231; 100 µM, 60 min, added: iodoacetamide probe; relative to: DMSO over compound-treated, higher = stronger cysteine blockade).
For `CC(=O)N[C@H](C(=O)N[C@@H](CCC(N)=O)C(=O)N[C@@H](CO)C(=O)N[C@@H](CC(=O)O)C(=O)COC(=O)c1c(C)cccc1C)C(C)(C)C`, the kinact/KI was 25100 M⁻¹ s⁻¹ (CASP6; enzyme activity, inhibitor).
`CC(C)NCCCn1c(Sc2cc3c(cc2I)OCO3)nc2c(N)ncnc21` has a ΔG of -10.32 ± 0.07 kcal/mol (HSP90AA1/HSP90B1 (Homo sapiens, UniProt P07900+P41148, E62I/S52A/Y61L); ITC).
`O=C(O)c1ccc(Nc2c(-c3ccc(CON=Cc4csc5ccccc45)cc3)nc3cc(-c4ccccc4)ccn23)cc1` has an inhibition of 72% (TDP1; enzyme activity, inhibitor; 100 µM, unpurified compound).
`O=C(O)Cc1cc2c(cc1C(=O)c1cccc(Br)c1)OCO2` has a current amplitude of 182 ± 14 pA (Gria1; glutamate-evoked current, whole-cell patch clamp; HEK-293T; concentration not given).
With `O=C(O)c1ccc(Nc2c(-c3ccc(CON=Cc4sccc4Oc4ccccc4)cc3)nc3cc(-c4ccccc4)ccn23)cc1` the inhibition was 95.3% (TDP1; enzyme activity, inhibitor; 100 µM).
The kinact/KI of `CC(=O)N[C@@H](CC(C)C)C(=O)N[C@@H](CCC(=O)O)C(=O)N[C@H](C(=O)N[C@@H](CC(=O)O)C(=O)COC(=O)c1c(C)cccc1C)C(C)C` is reported as 652000 M⁻¹ s⁻¹ (CASP6; enzyme activity, inhibitor).
For `Cc1ccc2c(c1Br)C(O)(CC(=O)c1ccc(C3CCCCC3)cc1)C(=O)N2` (stereo not shown), the Hill slope was -1.36 (ppa; enzyme activity; counter-screen).
`CCCCCC(O)/C=C/C=O` (stereo not shown) — result for “isoTOP-ABPP competition ratio”: 1.9 (CHRAC1 Cys55; competitive isoTOP-ABPP; proteome, soluble, MDA-MB-231; 100 µM, 60 min, added: iodoacetamide probe; relative to: DMSO over compound-treated, higher = stronger cysteine blockade).
For `CC(C)(C)n1ncc2c(=O)n(Cc3cccc(F)c3)c(NCc3ccc(F)cn3)nc21`, the selectivity ratio was > 2220 fold (High affinity 3',5'-cyclic-AMP phosphodiesterase 7A (PDE7A, Homo sapiens, UniProt Q13946); enzyme activity, inhibitor; relative to: IC50 PDE7A1 over PDE1C).
The ΔTm of `CC(C)C[C@@H]1NC(=O)[C@H](Cc2ccccc2)NC(=O)CSC[C@@H](C(=O)NCC(N)=O)NC(=O)[C@H](C(C)C)NC(=O)[C@H](Cc2ccccc2)NC(=O)[C@H](Cc2ccc(O)cc2)NC(=O)[C@H](C(C)C)NC(=O)[C@H](CC(=O)O)NC(=O)[C@H](Cc2ccccc2)NC(=O)[C@H](CCCNC(=N)N)NC(=O)[C@H](Cc2ccccc2)N(C)C(=O)[C@H](C)NC(=O)[C@H](Cc2ccccc2)NC(=O)[C@H](C(C)C)NC1=O` is reported as -1.1 °C (Bromodomain-containing protein 4, BD1 (BRD4, Homo sapiens, UniProt O60885); thermal stability, DSF; 100 µM).
With `O=[N+]([O-])c1cc(Br)cc([N+](=O)[O-])c1NS(=O)(=O)c1ccc(Br)cc1` the phosphatase activity was 1.14 a.u. and 1.15 a.u. and 0.945 a.u. (HAB1 (Arabidopsis thaliana, UniProt Q9CAJ0); inhibitor; 10 µM, no PYL receptor; higher = more activity).
`NC1=NCCc2ccccc21` gave a ΔTm of 1.4 °C (Nicotinamide N-methyltransferase, SAM-bound (NNMT, Homo sapiens, UniProt P40261); differential scanning fluorimetry; 1 mM, added: 100 µM SAM).
`O=C(O)c1ccc(Nc2c(-c3ccc(CON=Cc4cc(C(F)(F)F)ccc4F)cc3)nc3cc(-c4ccccc4)ccn23)cc1` (mixture of isomers) gave an inhibition of 30.5% (TDP1; enzyme activity, inhibitor; 100 µM, unpurified compound).
`N#CN1CC[C@H](C(=O)Nc2nc3c(s2)CN(C(=O)Cn2cc(CNC(=O)CCCC[C@@H]4SC[C@@H]5NC(=O)N[C@@H]54)nn2)CC3)C1` has an iBAQ abundance of 2.78e+08 and 3.54e+08 and 7e+08 (Tubulin beta-4B chain (Homo sapiens, UniProt P68371); probe binding, affinity probe, neutravidin pull-down LC-MS/MS; HEK293T, cell lysate; 5 µM, 1 h, single replicate, unit not given; higher = more pulled down).
`CCCCCCOc1ccc(C(=O)OCC[N+]2(C)CC=CCC2)cc1` (stereo not shown) has a basal binding of 1.19 ± 0.04 fold (Muscarinic acetylcholine receptor M5 (CHRM5, Homo sapiens, UniProt P08912); membranes; 1 µM, 15 h, no carbachol; relative to: control).
For `Cc1cccc2c1NC(=O)C2(O)CC(=O)c1ccc2c(c1)OCO2` (stereo not shown), the Hill slope was -19.9 (ppa; enzyme activity; counter-screen).
For `O=C1CC(c2ccccc2)N1S(=O)(=O)c1cccc(Cl)c1` (stereo not shown), IC50 read “inactive” (Rhomboid protease GlpG (glpG, Escherichia coli, UniProt P09391); substrate cleavage, inhibitor; NR698).

Repeated from above:
`CC(=O)N[C@H](C(=O)N[C@@H](CCC(=O)O)C(=O)N[C@@H](CO)C(=O)N[C@@H](CC(=O)O)C(=O)COC(=O)c1c(C)cccc1C)[C@@H](C)O` gave a kinact/KI of 195000 M⁻¹ s⁻¹ (CASP6; enzyme activity, inhibitor).
`CCCc1n(Cc2ccc(Br)cc2)c2c([n+]1Cc1ccc(Br)cc1)CCCC2` — result for binding: “binds” (T1, dsDNA, duplex; competition with EtBr, competitor, EtBr displacement fluorescence; Na+ 50 mM, added: EtBr).
